Assay results of several laboratories.
Every numbered part comes from another study and shows a few of its results, in no order.

Study 1 — observed: binding; technique: radioligand binding; concentration: 10 µM
Target: Alpha-1A adrenergic receptor (ADRA1A, Homo sapiens, UniProt P35348)
Chain of UniProt P35348 (whole entry, looked up): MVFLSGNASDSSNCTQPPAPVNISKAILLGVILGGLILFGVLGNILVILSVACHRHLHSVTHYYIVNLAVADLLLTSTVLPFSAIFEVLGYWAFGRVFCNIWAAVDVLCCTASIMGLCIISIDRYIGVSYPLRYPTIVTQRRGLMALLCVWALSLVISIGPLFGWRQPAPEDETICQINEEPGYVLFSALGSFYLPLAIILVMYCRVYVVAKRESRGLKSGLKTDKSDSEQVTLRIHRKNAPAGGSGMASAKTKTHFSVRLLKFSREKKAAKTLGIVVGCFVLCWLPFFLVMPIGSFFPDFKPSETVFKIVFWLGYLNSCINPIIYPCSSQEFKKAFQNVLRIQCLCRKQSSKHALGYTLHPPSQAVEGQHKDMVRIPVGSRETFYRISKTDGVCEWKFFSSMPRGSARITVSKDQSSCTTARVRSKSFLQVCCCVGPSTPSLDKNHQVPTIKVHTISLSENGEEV
For `CC1=C(C#N)[C@@H](c2ccc3[nH]nc(C)c3c2)C(C#N)=C(c2ccc(Cl)cc2)N1`, the inhibition was -11%.
With `CS(=O)(=O)NCC[C@H](NC(=O)c1cncc2c1cnn2-c1ccc(F)cc1)c1ccnc(S(C)(=O)=O)c1` the inhibition was -3.82%.
The inhibition of `COCCc1ccc(-c2c(C)nc3c(N4CCOCC4)ccnn23)cn1` is reported as 23%.
With `CCCOc1ccc([C@H]2[C@H](C(=O)O)[C@@H](c3ccc4c(c3)OCO4)CN2CC(=O)Nc2c(CC)cccc2CC)cc1` the inhibition was -9.09%.
With `CC(=O)c1c(NS(C)(=O)=O)c2cc(-c3ccc(Cl)cc3)c(-c3ccc(Cl)cc3Cl)nc2n(C)c1=O` the inhibition was 28.5%.
With `C[C@@]1(Cc2ccc(C#N)cc2)C(=O)N(c2cc(Cl)cc(Cl)c2)c2ncc(C(=O)NC3(c4nc(C5CCC5)no4)CC3)n21` the inhibition was -1.65%.
The inhibition of `O=C([C@H]1C[C@H](O)CN1c1ccc(Cl)cc1)N1CC2COCC(C1)N2Cc1ccc(Cl)cc1` is reported as 7.02%.
`O=C(Nc1cccnn1)N1CC(CC=Cc2cncc(Oc3ccc(C(F)(F)F)cn3)n2)C1` has an inhibition of -14.3%.
For `C[C@H](NC(=O)c1cnc2n1[C@](C)(Cc1ccc(C#N)cc1)C(=O)N2c1cc(Cl)c(F)c(Cl)c1)C(=O)NC1(c2ccccn2)CC1`, the inhibition was -8.89%.
`Cc1nc(Cc2cccc(C(F)(F)F)c2)sc1-c1ccc(C(N)=O)nc1` has an inhibition of -13.7%.

Study 2 — technique: RNA Bind-n-Seq; form: RNA; medium: in vitro; concentration: 20 nM; setting: 6-mer, flanks averaged, single round; with: 150 mM LiCl; baseline: input library; direction: higher = stronger binding
Target: TAR DNA-binding protein 43, full length, His tag (TARDBP, Homo sapiens, UniProt Q13148, residues 1-414)
Under “6-mer enrichment (R)”, `AGGGCA` is recorded as 0.973.
Under “6-mer enrichment (R)”, `GUGGUG` is recorded as 1.78.
`CGUGCG`: “6-mer enrichment (R)” 1.08.
`UACCGC` — result for “6-mer enrichment (R)”: 0.887.
`CACAUA`: “6-mer enrichment (R)” 0.89.
For `GCCGAG`, “6-mer enrichment (R)” read 1.
`CCCACU` — result for “6-mer enrichment (R)”: 1.01.
`GAAUGU` — result for “6-mer enrichment (R)”: 1.29.

Study 3 — partner: H2BC15 (Homo sapiens, UniProt Q99877); technique: cross-linking MS; setting: hits only
`H2AZ1 (Homo sapiens, UniProt P0C0S5)` — result for interaction screen: “cross-linked”.
`H2AC6 (Homo sapiens, UniProt Q93077)`: interaction screen “cross-linked”.
For `H2AC20 (Homo sapiens, UniProt Q16777)`, interaction screen read “cross-linked”.
For `H2BC12L (Homo sapiens, UniProt P57053)`, interaction screen read “cross-linked”.

Other studies, line by line
FHL1 DNA-binding domain: Pre-rRNA-processing protein FHL1, DNA-binding domain (FHL1, Saccharomyces cerevisiae, UniProt P39521, residues 401-638)
Chain of UniProt P39521 (401-638, looked up): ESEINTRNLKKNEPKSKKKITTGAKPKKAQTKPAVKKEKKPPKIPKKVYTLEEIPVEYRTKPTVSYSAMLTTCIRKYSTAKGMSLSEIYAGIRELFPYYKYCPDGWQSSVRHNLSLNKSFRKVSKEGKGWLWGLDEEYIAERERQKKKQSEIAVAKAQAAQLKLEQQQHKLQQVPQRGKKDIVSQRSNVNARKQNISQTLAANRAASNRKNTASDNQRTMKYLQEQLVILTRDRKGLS
`GACGCG`: “relative binding free energy” 0.194 ddG/RT (FHL1 DNA-binding domain; SELEX-seq; double-stranded DNA, one strand shown, in vitro; not given, 6-bp core, flanks averaged; baseline: best-binding core, lower = stronger binding).
For `Cc1nc(N2CCN(C)CC2)nc2c1C(=O)CC(c1ccco1)C2` (stereo not shown), the remaining compound was 45% (human, microsomes or S9; 2 µM, 0.5 h).
`CACGCA` — result for “relative binding free energy”: 0.07 ddG/RT (FHL1 DNA-binding domain; SELEX-seq; double-stranded DNA, one strand shown, in vitro; not given, 6-bp core, flanks averaged; baseline: best-binding core, lower = stronger binding).

Excerpt of the above (study 2):
`CGUGCG`: “6-mer enrichment (R)” 1.08.
`UACCGC` — result for “6-mer enrichment (R)”: 0.887.
`CCCACU` — result for “6-mer enrichment (R)”: 1.01.
